Results of several laboratories.
Parts stem from different laboratories: compare values within a part only. Substitutions count along the parent as printed.

Block 1 — technique: EMSA with sequencing; form: double-stranded DNA, one strand shown; sample: in vitro; concentration: 10 and 20 nM; reference: negative control set to 0; reading: higher = stronger binding; measurement: normalised bound fraction
Target: Hepatocyte nuclear factor 3-alpha (Foxa1, Mus musculus, UniProt P35582, residues 1-468, full length assumed)
Notes: whole designed probe, mean of two concentrations, ends assumed
Constant ends, left off below: GTGAGCGGTGCCCATTGATGGGGAAC … TTTCACTGGGATCGTGGGGAC
Residues (chain): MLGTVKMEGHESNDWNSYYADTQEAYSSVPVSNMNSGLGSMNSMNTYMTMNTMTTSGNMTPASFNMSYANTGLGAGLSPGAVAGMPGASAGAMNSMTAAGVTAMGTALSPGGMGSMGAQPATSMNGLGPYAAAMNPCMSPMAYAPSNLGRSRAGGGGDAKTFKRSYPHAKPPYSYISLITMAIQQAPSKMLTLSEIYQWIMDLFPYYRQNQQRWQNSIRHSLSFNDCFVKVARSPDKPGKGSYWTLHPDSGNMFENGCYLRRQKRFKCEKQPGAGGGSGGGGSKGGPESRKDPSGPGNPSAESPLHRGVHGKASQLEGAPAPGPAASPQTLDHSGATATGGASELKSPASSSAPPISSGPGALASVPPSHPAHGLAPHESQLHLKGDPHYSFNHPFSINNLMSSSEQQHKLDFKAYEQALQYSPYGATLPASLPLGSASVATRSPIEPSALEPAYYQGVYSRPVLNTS
Sequence = AAGGCTTTTATTAGACATGTGCTTCCTCTACACAGAGTAAATGTACTTGAATTTAAAGTGTCTGTAGAGATTGTTGAGTAATCTAAAATTTGCCTGTTTACATTGCCATATTTAGAGAAATCCAAGTTCAGTGAGATGAATAGGAAAGATATGCTCAAGTTACTGTACTTCAAATGTATACTGATCTTCTTTC; result = 0.221 ratio
Sequence = ATCTTCCCCCTCTTCCTTGCCCCACCAGCTCACCTTCCCGGGTTATTTGCACAAAGGAAAATAAATAAAGCCGGCATTCGTTAACGCAGTTCACGCGCATACTGCTGTTTGCTCTGGATGAATCATGGTCCTTTGGCGACGCCAGGCTCCGGGAGAGCAAAGCACCGTGTCAGGGCCATGATCCGGGCTCGCC; result = 0.38 ratio
Sequence = GCTCCTTTGCAGAGAATAAGATTTGATTTCATGCTTATCCATATGTTCTTAATAACTGCTTCCTTGACTTGTAAGATAAGACTAAGTTTTCCTGTTTACTCAGATTCTTCTAAAAGTCTCTTCTCCAGTTTGGAGAAAGGAAGAAAGTACATTGTTCCATTTATAGTTAACTAGTAGATTGATTGCAAATATC; result = 0.143 ratio
Sequence = ATCTTCCCCCTCTTCCTTGCCCCACCAGCTCACCTTCCCGGGTTATTTGCACAAAGGAAAATAAATAAAGCCGGCATTCGTTAACCCTCTTCACGCGCATACTGCTGTTTGCTCTGGATCTAACATGGTCCTTTGGCGAGGCGTGGCTCCGGGAGAGCAAAGCACCGTGTCAGGGCCATGATCCGGGCTCGCC; result = 0.372 ratio
Sequence = AACAGAAACAGGCCAGCCTATTTACACAAGGACGTTTACTACAAAAACCTGAACCAGTGAGTAGCAATAAAGGGCTAGTTAAAAAGACTTCGGTATTTACATAGAACATGAATATGTGCATTATAAAGTTTGAGGTAGATCTATTTATGCCACTGTGGAATGATCTCGAAGATAAATAACTGACAAGCAAGAC; result = 0.482 ratio
Sequence = GTGTTCAAGGAGGAGCTTTATTAACTCAGCACTTCTAACAATTTCCTAGGTACTTATAAGACATTTCCAAAGTCAAGTTAATGAGCTGCAGAGTAATCTAGAGTCTCTCGTAGTTTCTGAAGTTCGAGAAGAAATTCTACAGAAAGAGGTAAGAAATGGCCAAAATATTGGGCTAAAATAAGTTTTTCTTAGG; result = -0.0427 ratio
Sequence = GGGTCAAGTGGCCACCCAGAGAGCTGATGCATGCTGATGTGAGACTCCTACAAGCCATGAGACAAAACAGACTTATAAACATGTAACGTGTTGAGATGACACAAGGAACCAAGCAGTGATGAGGAATGTGCCAATGGCTGAGATGGAGCAACCCACTTGCTGAGTCTTGCAAAAGCAACCTCCCTAGATGAAC; result = -0.0323 ratio
Sequence = ATCTTCCCCCTCTTCCTTGCCCCACCAGCTCACCTACGGGGGTTATTTGCAGATAGGAAAATAAATAAAGCCGGCATTCGTTAACCCTCTTCACGCGCATACTGCTGTTTGCTCTGGATCTAACATGGTCCTTTGGCGACGCCAGGCTCCGGGAGAGCAAAGCACCGTGTCAGGGCCATGATCCGGGGTGGCC; result = 0.357 ratio

Block 2 — technique: protein-binding microarray; form: double-stranded DNA, one strand shown; sample: in vitro; concentration: not given; reading: higher = stronger binding; measurement: E-score
Target: Myc proto-oncogene protein, bHLH-zipper, MAX partner unstated (MYC, Homo sapiens, UniProt P01106, residues 368-449)
Chain of UniProt P01106 (368-449, looked up): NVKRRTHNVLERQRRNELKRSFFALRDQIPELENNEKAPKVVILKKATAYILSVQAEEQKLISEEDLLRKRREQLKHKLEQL
Notes: k-mer, scored over probes, only values ≥0.25
Sequence = AGGAACGC; result = 0.25
Sequence = CTCCCCAC; result = 0.316
Sequence = GTCGCCAC; result = 0.269
Sequence = GTGTTGCA; result = 0.3
Sequence = ACGCCCCG; result = 0.309
Sequence = GCATGCGC; result = 0.42
Sequence = CGTGGTTC; result = 0.381
Sequence = CGTGGATC; result = 0.31

Block 3 — technique: RNA Bind-n-Seq; form: RNA; sample: in vitro; concentration: 365 nM; reference: no-protein control; reading: higher = stronger binding; measurement: RBNS enrichment (R)
Target: RNA binding protein fox-1 homolog 2, RRM domain, GST-SBP tag (RBFOX2, Homo sapiens, UniProt O43251-10, residues 100-194)
Notes: natural RNA segment, single round, ends assumed
Constant ends, left off below: GGGAGUUCUACAGUCCGACGAUC … UGGAAUUCUCGGGUGCCAA
Construct (chain): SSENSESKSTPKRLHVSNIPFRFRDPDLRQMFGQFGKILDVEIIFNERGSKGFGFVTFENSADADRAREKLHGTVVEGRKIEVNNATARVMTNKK
Sequence = AAACGGUUUCCUUUUUGAGAUAUUUUAACAGAGAAGGGGUGGGGGAGAAGCAGAUGAAGCUGUACUACCCAGCCCUCUUCUUGUUUGUAUUUGUUUAGGGUUGUGAGGUU; result = 0.638
Sequence = GAAGGGAUUUGUUCUAUACGAGGCAACUGCAGUGAGUGCUUUUAAGGCUAUCCCUGUCGCACGUUGGAUCCUGGAUAAGCUAGUCCCUUCGUUUGCGUUGAGAAUUGGCA; result = 2.13
Sequence = CUAUUUACAAAUUAGGAAAGCAACCUUUUGGUUUAUAUAUAUUUUUUUUAAUACCUCAGUGCUGCAAGUAUCACCAGAGAGGCUAUGGAAGAAUUUUUUUUUAAUUUAUU; result = 1.2
Sequence = GUCUCCCAUCAAGACUACCUCAUAGUCCAGUAGAUCCACUCCGUGACCAAGGACAUCAUGCUCUGUAUUUGACAGUAAAGUUUUACCUUAAAAAUGAGACCCCCAACUAC; result = 0.389
Sequence = UUGUAGUUCUUUCUUUAAAAAACAUUUUUUUUAAAGAAGAAGAAGCCACUUGAACCCUCAAUAAAGGCUGUUGCCUAAGCAUGGCAUACUUCAUCUGUUCUCAUUUGUGC; result = 0.39
Sequence = CUUUCCUAACUCGUGCUCCCUUCCGCCUUCUUUUCCGUACUGUGAAGAAAGAACUCUCCACCCCAGCUCCCACCCUGCCCUGGCCUGGGUGGAGGAACUGUGCCUCCAUC; result = 1.07
Sequence = AUGACACAUUUCGGACCCUCUGAGUCCCCCUGGAGGACUCCCUUGAGGCUGAACCCUCUCAAAGGGCUGUCACCAUCACCUGCUGCUAGGACACUACAAAACAAUCAAAU; result = 0.339
Sequence = AGGAAGAAGCAAGCAAAACUGAGCUUGCCUUCUUCAAGAGUGACCCUUUCGGGCUCCUUUUUUAGGUGGUGGGAUUGAGUCCCUACUAGCUCGGAAGGCCUUGAGAGGGC; result = 0.336

Mixed results
Parent: viral docking peptide; KGVKRKLFAEDSS; partner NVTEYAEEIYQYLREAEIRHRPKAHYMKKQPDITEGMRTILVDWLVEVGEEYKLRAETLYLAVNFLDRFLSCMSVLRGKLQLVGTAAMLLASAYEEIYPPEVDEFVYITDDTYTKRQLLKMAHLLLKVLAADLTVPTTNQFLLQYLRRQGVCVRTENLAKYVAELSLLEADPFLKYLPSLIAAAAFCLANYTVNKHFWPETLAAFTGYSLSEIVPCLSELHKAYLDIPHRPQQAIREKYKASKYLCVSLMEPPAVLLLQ
Change = KGVKRKLFREDSS [A9R]; target = CCNA1, cyclin fold, Cln2 fusion (human); assay = yeast growth competition, sequencing; test system = yeast; conditions = weak parent motif; how to read = reference: not given, higher = stronger binding; measurement = normalised enrichment score; result = 1.18

For quick reference, copied from above (block 2):
Sequence = AGGAACGC; result = 0.25
Sequence = ACGCCCCG; result = 0.309
Sequence = GTGTTGCA; result = 0.3
